# Published values from different studies.
# Numbered parts are unrelated; each lists some results of a single study. Positions count from the first letter of the parent shown.

# Study 1 — technique: Sort-seq; refers to: YFP reporter; matrix: E. coli; notes: PhoQ-PhoP variant library; together with: 10 µM Mg2+; baseline: high Mg2+ state; reading: higher = stronger signaling
# Substance: PhoQ, residues 284 288 289 292 302 303 DDMDFR
target,fold induction
"PhoP, residues 12 14 15 18 19 AYFRS (Escherichia coli, UniProt P23836)",0.763
"PhoP, residues 12 14 15 18 19 SFCSL (Escherichia coli, UniProt P23836)",0.832
"PhoP, residues 12 14 15 18 19 HHYTI (Escherichia coli, UniProt P23836)",0.679

# Study 2 — technique: RNA Bind-n-Seq; molecule type: RNA; matrix: in vitro; concentration: not given; notes: RNA with constant flanks, ends assumed; baseline: input RNA pool; reading: higher = stronger binding
# Target: RING finger protein unkempt homolog, zinc fingers 1-6, GST-SBP tag (UNK, Homo sapiens, UniProt Q9C0B0, residues 30-357)
# All sequences stand within: GGGAGUUCUACAGUCCGACGAUC … CAACAGAGGAUUGAGCAUCA
# Construct (chain): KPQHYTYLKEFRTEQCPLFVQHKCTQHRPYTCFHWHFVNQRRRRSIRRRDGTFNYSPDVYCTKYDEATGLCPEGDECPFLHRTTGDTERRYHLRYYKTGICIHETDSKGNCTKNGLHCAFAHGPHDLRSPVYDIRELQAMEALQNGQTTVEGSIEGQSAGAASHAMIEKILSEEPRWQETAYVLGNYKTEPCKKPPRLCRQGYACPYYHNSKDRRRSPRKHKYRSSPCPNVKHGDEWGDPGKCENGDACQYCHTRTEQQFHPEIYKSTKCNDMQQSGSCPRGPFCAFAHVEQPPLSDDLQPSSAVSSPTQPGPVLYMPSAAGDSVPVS
Sequence,bound/input enrichment
AAGAGAAAGAAGGUUAAGCUGGCUGUCCUGAAAUAUUAUAAGGUGGAUGAGAAUGGCAAAAUCCGUCGCCUUCGUCGAGAGUGCCCUUCUGAUGAAUGUGGUGCUGGGGUGUUUAUGGCA,0.339 ratio
AAUGUGGCAUUCAUGAGCUACUUUUUACAGGGCAAGGUUGAUGCCUGCCUAGAGCUCUUAAUCCGAACUGGACGGCUGCCAGAAGCUGCCUUCUUGGCCCGAACUUACUUACCCAGUCAG,0.157 ratio
CUUUGUAUAUAUUUUUUUGUGUACAUGCACACAUCUCGAAAUCCAUUUCCGUGUUUAAUGUCCGUUGUUUAUGUGUUAGUAUUCCUGUGUCUACUGUUUUGUUGUUGUUAAUAUGGGUAA,0.707 ratio
AGUGGGAAUAUCACUUUUGAUGAGAUUGUCAACAUUGCUCGACAGAUGCGGCACCGAUCCUCCGCCAGAGAACUCUCUGGAACCAUUAAAGAGAUCCUGGGGACUGCCCAGUCAGUGGGC,0.201 ratio
CAUAGUGAACGAGAAAUGAGGAACACACUAGAAAAAUUUACUGCAAGCAUCCAGCGUUUAACCGAGCAAGAAGAAUAUUUGAAUGUCCAAGUUAAGGAACUUGAAGCUAAUGUACUUGCU,0.882 ratio
UUUAAAACAAAAAAUAUAUUAAUUUACAUAUAAGGGGAUUUAUGAUAAUUGUAUUAUAUCCCGUUGAGUUUCAUAUUCUUAAUUAGCCUGUAAAUAAAAAUGACAUAUUCUACAUUAAAG,2.34 ratio
AACAAACUUAUAGUGACGCGUUGGAAGGCUAACCGAAGCCAUCCUUACCCCUAUUUAAUGCCGCUUGGCUUGCUUUCCCUUUUAUCUGAUGUUACCAUUGCGAUCUAGCUUUCUUUUCAU,0.616 ratio
CUUUGCGAGCAGAAACGGGAGACCUGUGCAGAUGGUGAGGCAGCAGGCUGCACUAUCAACAACCGCCUAUCCAACAUCCAGUGGCUUCGAAAGAUGAGUUCUGAUGGACUGGGCUCCCGC,0.0748 ratio

# Study 3 — target: FOSL1, bZIP domain (human); technique: DHFR protein complementation; matrix: yeast; baseline: wild-type JUN-FOS pair; reading: higher = stronger binding
# Notes: single substitutions, most at no-binding floor
# Starting sequence: JUN, bZIP domain (human); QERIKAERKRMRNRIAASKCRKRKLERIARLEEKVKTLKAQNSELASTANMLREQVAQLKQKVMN; partner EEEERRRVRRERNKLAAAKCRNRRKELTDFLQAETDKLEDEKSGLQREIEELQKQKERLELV
Change,binding fitness [natural log]
K36P,-1.45
A57R,-0.482
M51S,-0.417
E54M,-0.674
T37H,-0.302
T48G,-1.21
L31R,-1.26
L52F,-1.22
E33S,-0.587
A46K,-0.246
A49H,-1.26

# Study 4 — technique: RNA Bind-n-Seq; molecule type: RNA; matrix: in vitro; concentration: 365 nM; baseline: no-protein control; reading: higher = stronger binding
# Target: RNA binding protein fox-1 homolog 2, RRM domain, GST-SBP tag (RBFOX2, Homo sapiens, UniProt O43251-10, residues 100-194)
# Notes: natural RNA segment, single round, ends assumed
# All sequences stand within: GGGAGUUCUACAGUCCGACGAUC … UGGAAUUCUCGGGUGCCAA
# Construct (chain): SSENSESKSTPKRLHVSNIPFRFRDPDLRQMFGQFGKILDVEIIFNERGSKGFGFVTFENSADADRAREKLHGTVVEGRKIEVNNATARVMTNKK
Sequence,RBNS enrichment (R)
AUAAACUUCAGAGGCCUCUGGCUCCCUCUAGUGACAAGUUUGUUCCAAGGGACAUACACUGAAACAUACAGCUGUCUAGGUUAUAAAUGUGUAGGUCUACAACUGCUAGU,0.313
CUUUAUGAAGGGGCGUUUUAAAGUUGUUGUUUAGCAGUGACAUUUAAUAUGGUCCAAUUGCUUUUCUUUUUAACGUGACAAAAAGAGAAUAAGGAACAAACACUAUUGCU,0.788
CAAAGGUUGGCAGAUAGAGGCUGUUCCCAGGCCAGUGAGCUUUACUUGCAGUGUAAAAGGAGGAAAGGGGUGGAAAAAACCGAAUUUCUGCAUUUAACUACAAAAAAAGU,0.353
AUUAACUAGAACAGAAUGCUUACAAAGUUUACGUUAAUGUUAUAUAUUAUGUAUAAAUAAAUAUAUUCAUAAUGAGUAUAUGUAAUGGAUAGCACAACGUUUGGAGACGU,7.97
UUUUAAAUGUCUAUAUCUUUUAUUAUAGAGAAACCAUUAGAUCCAAUAAAUGAAGAAAUACAUUUUAAGUAGAUAUCAGUUACUUUUAAUUUGUAUGGUAAAUAUAUACA,0.473
UGAGAAAGUGGACUUAACCGAAAUGGAACCAACUGACAUUCUAUCGUGUUGUACAUAGAAUGAUGAAGGGUUCCACUGUUGUUGUAUGUCUUAAAUUUAUUUAAAACUUU,0.465
UAUUAAUUUGGAUUGCCUGAGCAGUGUGUAUCCCAUGAUGAUGAAGGGAAAUGGAGAGAUUUUUCCUUUUAGCUCUGCUGGUCAGAGAUUAAGCCACACCUUUCCAUUUU,0.316
AGGACCCGGGUCAUGGGUCAGUGUUAGUGGUAGCGUGCUCUCAUUCGCUUGGAAGUGGUGGCCAUGUGGCCGUUAUACAGCCUUUGCUGAUAUGGCCCUCAUCGUCGUGU,0.419

# Excerpt of the above (study 2):
Sequence,bound/input enrichment
CAUAGUGAACGAGAAAUGAGGAACACACUAGAAAAAUUUACUGCAAGCAUCCAGCGUUUAACCGAGCAAGAAGAAUAUUUGAAUGUCCAAGUUAAGGAACUUGAAGCUAAUGUACUUGCU,0.882 ratio
UUUAAAACAAAAAAUAUAUUAAUUUACAUAUAAGGGGAUUUAUGAUAAUUGUAUUAUAUCCCGUUGAGUUUCAUAUUCUUAAUUAGCCUGUAAAUAAAAAUGACAUAUUCUACAUUAAAG,2.34 ratio
AACAAACUUAUAGUGACGCGUUGGAAGGCUAACCGAAGCCAUCCUUACCCCUAUUUAAUGCCGCUUGGCUUGCUUUCCCUUUUAUCUGAUGUUACCAUUGCGAUCUAGCUUUCUUUUCAU,0.616 ratio
CUUUGCGAGCAGAAACGGGAGACCUGUGCAGAUGGUGAGGCAGCAGGCUGCACUAUCAACAACCGCCUAUCCAACAUCCAGUGGCUUCGAAAGAUGAGUUCUGAUGGACUGGGCUCCCGC,0.0748 ratio
